Results of several laboratories.
Protocols differ between the studies behind these lines. Values joined by “and” are separate records of one study, mostly repeats; a detail may differ. Numbers after ± are the reported error.

The EC90 of `Cn1cnc(Cn2c(=O)[nH]/c(=N\c3cc4cn(C)nc4cc3Cl)n(Cc3cc(F)c(F)cc3F)c2=O)n1` is reported as 51.4 ± 18.2 nM (SARS-CoV-2; viral replication; Delta strain; 48 h).
With `N#C[C@@]1(n2ccc(N)nc2=O)O[C@H](CO)[C@@H](O)[C@H]1O` the EC90 was 1900 ± 700 nM (SARS-CoV-2; viral replication, qRT-PCR of viral RNA; Calu-3, Washington).
The EC90 of `C1=C(c2ccc(CN3CCCCC3)cc2)N2CCN=C2c2ccccc21` is reported as 1730 nM (SARS-CoV-2; viral replication, inhibitor; Vero E6, USA-WA1/2020; 24 h).
`CC(C)(C)[C@H](NC(=O)C(F)(F)F)C(=O)N1C[C@H]2[C@@H]([C@H]1C(=O)N[C@H](C#N)C[C@@H]1CCNC1=O)C2(C)C` gave an EC90 of 46.8 ± 10.2 nM (SARS-CoV-2; viral replication; Delta strain; 72 h).
With `Nc1ncnc2c([C@@H]3N[C@H](CO)[C@@H](O)[C@H]3O)c[nH]c12` the inhibition was 57.1% (Marburg virus; viral RNA in cell lysate; HeLa, Musoke; 3.1 µM, 1 h).
The EC90 of `CC(C)(C)[C@H](NC(=O)C(F)(F)F)C(=O)N1C[C@H]2[C@@H]([C@H]1C(=O)N[C@H](C#N)C[C@@H]1CCNC1=O)C2(C)C` is reported as 300 ± 60 nM (SARS-CoV-2; viral replication, qRT-PCR of viral RNA; Caco-2, Washington).
`CC#C[C@]1(O)CCC2C3CCC4=CC(=O)CCC4=C3[C@@H](c3ccc4c(c3)OCO4)C[C@@]21C` (stereo partly shown) gave an EC90 of 6800 nM and 4250 nM (SARS-CoV-2; viral replication; USA-WA1/2020).
`Cc1cccc(/C=N/Nc2cc(N3CCOCC3)nc(OCCc3ccccn3)n2)c1` gave an EC90 of 560 nM (SARS-CoV-2; viral replication; Huh-7-ACE2, USA-WA1/2020).
`CCC(CC)COC(=O)[C@H](C)N[P@](=O)(OC[C@H]1O[C@@](C#N)(c2ccc3c(N)ncnn23)[C@H](O)[C@@H]1O)Oc1ccccc1` gave an EC90 of 400 ± 100 nM (SARS-CoV-2; viral replication, qRT-PCR of viral RNA; Calu-3, Washington).
With `C[C@@H]1CS/C(=N\NC(=O)C(=O)[C@H](NC(=O)C2CCCCCC2)C2CCOCC2)N1C` the EC90 was 813 nM (SARS-CoV-2; viral replication; Huh-7-ACE2, USA-WA1/2020).
`N#C[C@@]1(c2ccc3c(N)ncnn23)O[C@H](CO)[C@@H](O)[C@H]1O` has an EC90 of 93400 ± 4700 nM (SARS-CoV-2; infectious virus yield; Vero C1008, VOC-202012/01; 48 h, 90% decrease endpoint).
`COc1ccc(Nc2cc(C(=O)NCCCN3CCN(c4ccccc4F)CC3)c3ccccc3n2)c(OC)c1` has an efficacy of 40.4% (SARS-CoV-2; cytopathic effect; USA_WA1/2020; round 2, 5-point).
The EC90 of `COc1cc2c(cc1N1C[C@@H](C)N[C@@H](C)C1)N(C(=O)c1ccc(-c3ccc(-c4noc(C)n4)cc3C)cc1)CC2` is reported as 380 nM (SARS-CoV-2; viral replication; 293T-ACE2, USA-WA1/2020).
`CC[C@H](C)[C@H](NC(=O)[C@H](CC(C)C)NC(=O)[C@H](Cc1c[nH]c2ccccc12)NC(=O)[C@H](CCC(N)=O)NC(=O)[C@@H](NC(=O)[C@H](Cc1ccccc1)NC(=O)[C@H](C)NC(=O)[C@H](CCCCNC(=O)COCCOCCNC(=O)COCCOCCNC(=O)CC[C@H](NC(=O)CCCCCCCCCCCCCCCCCCC(=O)O)C(=O)O)NC(=O)[C@H](CCC(N)=O)NC(=O)[C@H](C)NC(=O)[C@@H](NC(=O)[C@H](CCCCN)NC(=O)[C@H](CC(=O)O)NC(=O)[C@H](CC(C)C)NC(=O)C(C)(C)NC(=O)[C@@H](NC(=O)[C@H](CO)NC(=O)[C@H](Cc1ccc(O)cc1)NC(=O)[C@H](CC(=O)O)NC(=O)[C@H](CO)NC(=O)[C@@H](NC(=O)[C@H](Cc1ccccc1)NC(=O)[C@@H](NC(=O)CNC(=O)[C@H](CCC(=O)O)NC(=O)C(C)(C)NC(=O)[C@@H](N)Cc1ccc(O)cc1)[C@@H](C)O)[C@@H](C)O)[C@@H](C)CC)[C@@H](C)CC)C(C)C)C(=O)N[C@@H](C)C(=O)NCC(=O)NCC(=O)N1CCC[C@H]1C(=O)N[C@@H](CO)C(=O)N[C@@H](CO)C(=O)NCC(=O)N[C@@H](C)C(=O)N1CCC[C@H]1C(=O)N1CCC[C@H]1C(=O)N1CCC[C@H]1C(=O)N[C@@H](CO)C(N)=O`: “subjects ADA-positive at baseline” 8.3% (measured: anti-drug antibodies; patients with type 2 diabetes; 5/5/10/10 mg escalating, baseline, evaluable subjects).
For `Cc1cccc(N2CCN(C(=O)C3CCN(Cc4nc(-c5ccc(Cl)cc5)oc4C)CC3)CC2)c1C`, the efficacy was 119% (SARS-CoV-2; cytopathic effect; USA_WA1/2020; round 1, 5-point).
For `CC(C)OC(=O)[C@H](C)N[P@](=O)(CO[C@H](C)Cn1cnc2c(N)ncnc21)Oc1ccccc1`, the EC90 was over 20000 nM (SARS-CoV-2; viral replication; Vero; 48 h).
For `Cn1cnc(Cn2c(=O)[nH]/c(=N\c3cc4cn(C)nc4cc3Cl)n(Cc3cc(F)c(F)cc3F)c2=O)n1`, “patients with adverse event” read 0% (human, severe renal impairment; oral, 375 mg, vessel puncture site haemorrhage TEAE, Mild severity).
With `Nc1nc(=O)n([C@@H]2CS[C@H](CO)O2)cc1F` the EC90 was over 20000 nM (SARS-CoV-2; viral replication; Vero; 48 h).
Under “time of death”, `CNC(=O)[C@@H](NC(=O)[C@H](CC(C)C)[C@H](O)C(=O)NO)C(C)(C)C` is recorded as over 24 h (mouse; 60 µg/mouse, observed up to 0 h, together with: Daboia russelii venom, South, preincubated).

Excerpt of the above:
The EC90 of `Cn1cnc(Cn2c(=O)[nH]/c(=N\c3cc4cn(C)nc4cc3Cl)n(Cc3cc(F)c(F)cc3F)c2=O)n1` is reported as 51.4 ± 18.2 nM (SARS-CoV-2; viral replication; Delta strain; 48 h).
With `N#C[C@@]1(n2ccc(N)nc2=O)O[C@H](CO)[C@@H](O)[C@H]1O` the EC90 was 1900 ± 700 nM (SARS-CoV-2; viral replication, qRT-PCR of viral RNA; Calu-3, Washington).
The EC90 of `C1=C(c2ccc(CN3CCCCC3)cc2)N2CCN=C2c2ccccc21` is reported as 1730 nM (SARS-CoV-2; viral replication, inhibitor; Vero E6, USA-WA1/2020; 24 h).
